Experimental data gathered from unrelated publications.
A part holds a random share of what one study measured. Positions count from the first letter of the parent shown.

Block 1 — method: RNA Bind-n-Seq; molecule type: RNA; medium: in vitro; concentration: 1 µM; setting: whole 134-nt RNA, ends assumed; added: 150 mM KCl; baseline: input library; reading: higher = stronger binding
Target: Ras GTPase-activating protein-binding protein 1, C-terminal RGG region (G3BP1, Homo sapiens, UniProt Q13283)
Chain of UniProt Q13283 (whole entry, looked up): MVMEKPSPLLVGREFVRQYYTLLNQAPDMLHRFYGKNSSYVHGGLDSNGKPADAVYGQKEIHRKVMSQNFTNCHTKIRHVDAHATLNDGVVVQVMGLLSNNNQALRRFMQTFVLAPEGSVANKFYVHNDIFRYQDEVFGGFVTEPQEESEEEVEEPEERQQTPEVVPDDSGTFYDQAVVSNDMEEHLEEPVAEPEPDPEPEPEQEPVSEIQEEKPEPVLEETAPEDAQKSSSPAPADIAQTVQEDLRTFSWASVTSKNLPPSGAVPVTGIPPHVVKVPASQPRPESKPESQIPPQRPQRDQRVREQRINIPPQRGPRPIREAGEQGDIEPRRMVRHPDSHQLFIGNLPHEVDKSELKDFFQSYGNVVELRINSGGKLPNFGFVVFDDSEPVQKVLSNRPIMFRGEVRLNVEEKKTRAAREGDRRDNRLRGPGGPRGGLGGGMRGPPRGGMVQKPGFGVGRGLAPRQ
Strand | log2 enrichment
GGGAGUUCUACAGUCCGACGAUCAGUCCUGUGCUACACAUCGUAUGUACCGAAUCGGUUUUUUUGGAAAGGAAAAAAAGGAAAGUAUUAUGUUACGCCGUUCGGAUCUGCACUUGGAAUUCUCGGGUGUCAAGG | -2
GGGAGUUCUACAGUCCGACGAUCUGCUGCUUUCUGCCUUGGUGGCAGGCAGAGAACUGUCUCGUACUAGAAUUCAAGGAGGAAAGAAGAAGAAAUAAAAGAAGCUGCUCCAUUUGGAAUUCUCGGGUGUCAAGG | -1.57
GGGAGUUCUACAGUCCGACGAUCGUCCUGUGCUACACAUCGUAUGUACCGAAUCGGGUUUUUGGUUUUUGGGUUUUUGGGGAAAGUAUUAUGUUACGCCGUUCGGAUCUGCACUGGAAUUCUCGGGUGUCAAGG | -0.936
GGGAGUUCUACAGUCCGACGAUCGAAAUCCACAGGAAAGUGAUGUCACAAAACUUCACCAACUGCCACACCAAGAUUCGCCAUGUUGAUGCUCAUGCCACGCUAAAUGAUGGUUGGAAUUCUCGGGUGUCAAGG | -0.0742
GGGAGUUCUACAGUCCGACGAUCCCUCAAGUCCUGUGCUACACAUCGUAUGUACCGAAUCGGUUUGGAAAGGAGGAAAGUAUUAUGUUACGCCGUUCGGAUCUGCACUUCCAGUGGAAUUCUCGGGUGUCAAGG | -0.594
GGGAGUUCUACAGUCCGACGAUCCUCAAGUCCUGUGCUACACAUCGUAUGUACCGAAUCGGAAAAAGGAGGUUUGGAAAGUAUUAUGUUACGCCGUUCGGAUCUGCACUUCCAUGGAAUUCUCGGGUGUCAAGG | -1.1
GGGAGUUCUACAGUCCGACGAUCCAAGUCCUGUGCUACACAUCGUAUGUACCGAAUCGGUUUUUGGUGGAAAAAAAGGAAAGUAUUAUGUUACGCCGUUCGGAUCUGCACUUCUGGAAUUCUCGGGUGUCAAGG | -1.59
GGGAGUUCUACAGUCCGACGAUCUAACUUUAGAGGAGGAUCUGAUGGAUAUGGCAGUGGACGUGGAUUUGGGGAUGGCUAUAAUGGGUAUGGAGGAGCACCUGGAGGUGGCAAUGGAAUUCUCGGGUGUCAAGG | -0.64
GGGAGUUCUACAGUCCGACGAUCUGGCCCUGGUGGCAUGCGGGGAGGAAGAGGUGGCCUCAUGGAUCGUGGUGGUCCCGCUGGAAUGUUCAGAGGUGGCCGUGGUGGAGACAGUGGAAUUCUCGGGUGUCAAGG | 2.1

Block 2 — target: CCNB3, cyclin fold, Cln2 fusion (human); method: yeast growth competition, sequencing; medium: yeast; setting: weak parent motif; baseline: not given; reading: higher = stronger binding
Parent: PKN2 docking peptide (human); VSAVQKLDFSDTM
Change | normalised enrichment score
S2K | -0.164
V1S | 0.504
F9M | -0.0197
V1R | -0.174
A3D | -0.301
S2N | -0.0644
M13S | 0.528
V4C | -0.138
D11K | -0.0551
A3K | -0.0833
L7R | 0.101
V4F | 0.427
S2T | 0.241
T12K | 0.187
M13D | -0.106
V1E | 0.174
F9T | -0.232
D11P | 0.0853
L7S | 0.131
S10Y | 0.397

Block 3 — method: DHFR PCA, deep sequencing; medium: yeast; added: (+)-ABA 17 µM; baseline: wild-type fitted maximum; reading: higher = stronger binding
Target: ABI1, truncated, D143A, DHFR fusion (Arabidopsis thaliana)
Setting: methotrexate growth selection, single substitutions
Parent: PYL1, truncated, DHFR fusion (Arabidopsis thaliana); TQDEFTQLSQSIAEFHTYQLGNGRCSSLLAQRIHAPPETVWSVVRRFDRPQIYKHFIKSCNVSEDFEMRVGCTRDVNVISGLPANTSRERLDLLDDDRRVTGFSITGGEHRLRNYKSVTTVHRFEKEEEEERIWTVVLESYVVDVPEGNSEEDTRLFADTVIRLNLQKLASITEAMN; partner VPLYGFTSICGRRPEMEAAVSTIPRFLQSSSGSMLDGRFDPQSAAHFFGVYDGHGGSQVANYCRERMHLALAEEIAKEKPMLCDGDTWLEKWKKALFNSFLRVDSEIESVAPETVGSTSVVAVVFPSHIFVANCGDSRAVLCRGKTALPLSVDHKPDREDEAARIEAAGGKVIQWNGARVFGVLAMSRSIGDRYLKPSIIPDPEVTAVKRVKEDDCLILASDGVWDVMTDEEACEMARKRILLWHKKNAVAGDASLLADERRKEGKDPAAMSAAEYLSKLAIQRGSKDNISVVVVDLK
Change | relative binding score [%]
W134N | 77.1
V143H | 1.1
C72K | 44.3
E131P | 92.2
E128L | 76.6
P37R | 5.2
Q19F | 62.7
D159S | 56.5
Q31K | 76.3
L112K | -1.56
V76N | 9.35
N85Y | 76.6
D153T | 2.43
R32D | 48.5

Single results of other studies
Molecule | target | test | test system | setting | how to read | quantity | value
PhoQ, residues 284 288 289 292 302 303 SSLVEF | PhoP, residues 12 14 15 18 19 NQFFI (Escherichia coli, UniProt P23836) | Sort-seq, measured: YFP reporter | E. coli | PhoQ-PhoP variant library, added: 10 µM Mg2+ | baseline: high Mg2+ state, higher = stronger signaling | fold induction | 9.6

Repeated from above (block 1):
Strand | log2 enrichment
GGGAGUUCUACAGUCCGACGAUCUGCUGCUUUCUGCCUUGGUGGCAGGCAGAGAACUGUCUCGUACUAGAAUUCAAGGAGGAAAGAAGAAGAAAUAAAAGAAGCUGCUCCAUUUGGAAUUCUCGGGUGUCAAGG | -1.57
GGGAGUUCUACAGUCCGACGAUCCUCAAGUCCUGUGCUACACAUCGUAUGUACCGAAUCGGAAAAAGGAGGUUUGGAAAGUAUUAUGUUACGCCGUUCGGAUCUGCACUUCCAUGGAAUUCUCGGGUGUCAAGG | -1.1
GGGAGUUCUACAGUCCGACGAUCAGUCCUGUGCUACACAUCGUAUGUACCGAAUCGGUUUUUUUGGAAAGGAAAAAAAGGAAAGUAUUAUGUUACGCCGUUCGGAUCUGCACUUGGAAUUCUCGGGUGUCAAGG | -2
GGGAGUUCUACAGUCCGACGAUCCCUCAAGUCCUGUGCUACACAUCGUAUGUACCGAAUCGGUUUGGAAAGGAGGAAAGUAUUAUGUUACGCCGUUCGGAUCUGCACUUCCAGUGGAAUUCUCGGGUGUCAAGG | -0.594
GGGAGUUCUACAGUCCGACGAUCGAAAUCCACAGGAAAGUGAUGUCACAAAACUUCACCAACUGCCACACCAAGAUUCGCCAUGUUGAUGCUCAUGCCACGCUAAAUGAUGGUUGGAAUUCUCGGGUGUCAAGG | -0.0742
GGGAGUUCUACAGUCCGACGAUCGUCCUGUGCUACACAUCGUAUGUACCGAAUCGGGUUUUUGGUUUUUGGGUUUUUGGGGAAAGUAUUAUGUUACGCCGUUCGGAUCUGCACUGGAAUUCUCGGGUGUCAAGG | -0.936
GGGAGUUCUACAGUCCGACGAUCUGGCCCUGGUGGCAUGCGGGGAGGAAGAGGUGGCCUCAUGGAUCGUGGUGGUCCCGCUGGAAUGUUCAGAGGUGGCCGUGGUGGAGACAGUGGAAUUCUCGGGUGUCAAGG | 2.1
